Results from different studies.
Each line is one published result; not all experiments were run side by side. “And” joins repeats or separate records; there may be more than shown. ± gives the spread as reported.

For `CCN1CCC(CCNCc2cc3cc(OC)c(OC)c(OC)c3nc2SCc2ccccc2)CC1`, the inhibition was 6% (electron transport chain; proton pumping, ACMA quenching; Pseudomonas aeruginosa inverted membrane vesicles; 2 µg/mL, with: NADH).
`COc1ccc2c3c1O[C@H]1C[C@@H](O)C=C[C@@]31CCN(C)C2`: “lowest IC30 across channels” greater than 30 µM (human seizure ion channel panel; ion current, automated patch clamp).
`O=C(NN=Cc1ccc(C[n+]2ccccc2)cc1)c1ccc2ccc3ccc(C(=O)NN=Cc4ccc(C[n+]5ccccc5)cc4)nc3c2n1.[Br-].[Br-]` has a ΔTm of 36 °C (telomeric G4 DNA hybrid-2; FRET melting; 1 µM, DNA 0.2 µM, with: duplex DNA competitor 10 µM).
With `COc1cc2cc(CNCCC3CCN(C4CCCC4)CC3)c(SCc3ccccc3)nc2c(OC)c1OC` the inhibition was 19% (electron transport chain; proton pumping, ACMA quenching; Pseudomonas aeruginosa inverted membrane vesicles; 2 µg/mL, with: NADH).
Under “lowest IC30 across channels”, `Fc1ccc([C@@H]2CCNC[C@H]2COc2ccc3c(c2)OCO3)cc1` is recorded as 1.27 µM (human seizure ion channel panel; ion current, automated patch clamp).
The Vmax of `CCCN1CCCC[C@H]1C(=O)Nc1c(C)cccc1C` is reported as 224 pmol/min/mg protein (H+/organic cation antiporter; cell uptake; hCMEC/D3).
With `CC(C)(c1cc(Br)c(O)c(Br)c1)c1cc(Br)c(O)c(Br)c1` the cross-reactivity was less than 0.1% (camel nanobody T2; binding, competitive ELISA; concentration not given).
`COCCc1ccc(OCC(O)CNC(C)C)cc1` (stereo not drawn) gave a Vmax of 1280 pmol/min/mg protein (H+/organic cation antiporter; cell uptake; hCMEC/D3).
Under “stability constant difference”, `CC(C)n1ccnc1CN1CCN(Cc2nccn2C(C)C)CCN(Cc2nccn2C(C)C)CC1` is recorded as ≥ 9 orders of magnitude (Zn2+; potentiometric titration; reference: Zn2+ over Mn2+).
The inhibition of `CCN1CCC(CCNCc2cc3cc(-c4ccccc4)ccc3nc2SCc2ccccc2)CC1` is reported as 6% (electron transport chain; proton pumping, ACMA quenching; Pseudomonas aeruginosa inverted membrane vesicles; 2 µg/mL, with: NADH).
For `CC(=O)O[C@H]1C(=O)[C@@]2(C)[C@H]([C@H](OC(=O)c3ccccc3)[C@]3(O)C[C@H](OC(=O)[C@H](O)[C@@H](NC(=O)c4ccccc4)c4ccccc4)C(C)=C1C3(C)C)[C@]1(OC(C)=O)CO[C@@H]1C[C@@H]2O`, “lowest IC30 across channels” read greater than 30 µM (human seizure ion channel panel; ion current, automated patch clamp).
The inhibition of `CNC(=O)c1cc(Oc2ccc(NC(=O)Nc3ccc(Cl)c(C(F)(F)F)c3)cc2)ccn1` is reported as -2% (PKCβII (human); kinase activity, inhibitor; 10 µM).
`CC[C@@H](C(=O)Nc1ccc(C(N)=O)c(F)c1)n1cc(OC)c(-c2cc(Cl)ccc2-n2cc(C(F)(F)F)nn2)cc1=O` has an IC50 of 9.1 µM (human trypsin; enzyme activity).
For `COc1nc(NCc2cn(-c3ccc(C(=O)Nc4ccc(C(F)(F)F)cc4)cc3)nn2)nc(OC)n1`, “concentration of maximal DNA damage” read 4 µM (calf thymus DNA; Tb3+ fluorescence; no further fluorescence increase above).
`CCS(=O)(=O)c1nc(C2CC2)cc(C(F)(F)F)n1`: “cells with nuclear reporter” 91.5% and 90.5% and 64.8% and 97.2% (importin alpha/beta-1; cMyc nuclear import, high content imaging; HeLa Kyoto reporter; 1.58 µM, 2 h).
With `CCCNC(C)C(=O)Nc1c(C)csc1C(=O)OC` (stereo not drawn) the Km was 94.3 µM (H+/organic cation antiporter; cell uptake; hCMEC/D3).
With `c1ccc(CSc2nc3ccc(-c4ccccc4)cc3cc2CNCCC2CCN(C3CCCC3)CC2)cc1` the inhibition was 25% (electron transport chain; proton pumping, ACMA quenching; Pseudomonas aeruginosa inverted membrane vesicles; 2 µg/mL, with: NADH).
For `Oc1ccccc1-c1n[nH]cc1-c1ccnc2ccccc12`, “log2 fold change” read -0.21 (PTK2 (Candida albicans); kinase binding, MIB/MS competition; Candida albicans lysate; 10 µM; reference: DMSO).
`COc1nc(NCc2cn(-c3ccc(C(=O)Nc4ccccc4)cc3)nn2)nc(OC)n1` — result for “concentration of maximal DNA damage”: 6 µM (calf thymus DNA; Tb3+ fluorescence; no further fluorescence increase above).
With `Nc1ncnc2c1ncn2[C@@H]1O[C@H](COP(=O)(O)OP(=O)(O)OP(=O)(O)O)[C@@H](O)[C@H]1O` the responding cells was 15.2 ± 3.8% (P2Y receptor; calcium response, fura-2 imaging; 16HBE14o- cells; 1 µM).
`CN(C)CCCN1c2ccccc2Sc2ccc(Cl)cc21` — result for “lowest IC30 across channels”: 2.37 µM (human seizure ion channel panel; ion current, automated patch clamp).
`O=C1c2cccc3c2[C@H](CCC3)CN1[C@@H]1CN2CCC1CC2` has a Km of 41.4 µM (H+/organic cation antiporter; cell uptake; hCMEC/D3).
The kcat of `NC(=O)C1=CN([C@@H]2O[C@H](COP(=O)(O)OP(=O)(O)OC[C@H]3O[C@@H](n4cnc5c(N)ncnc54)[C@H](O)[C@@H]3O)[C@@H](O)[C@H]2O)C=CC1` is reported as 7.06 ± 1.25 s⁻¹ (FSP1 F354A mutant; substrate; with: 100 µM co-substrate).
`CC(=O)ON=C1C=CC(=C(C#N)c2ccccc2)C=C1` has a remaining activity of 111% (Leishmania major CK1; enzyme activity, inhibitor, ADP-Glo; 2 µM, about MIC/10, with: ATP 10 µM).
`C[C@@H]1CC[C@H]2[C@@H](/C1=C/C[C@H]1[C@]3(C)CCC(=O)C(C)(C)O[C@H]3CC[C@]1(C)O)C(C)(C)CC[C@]2(C)O` has a paclitaxel remaining of 82.3% (P-glycoprotein human; inhibitor, efflux; KB-C2; 10 µM, 30 min, with: [3H]-paclitaxel).
`COc1cccc2c1C(=O)c1c(O)c3c(c(O)c1C2=O)C[C@@](O)(C(=O)CO)C[C@@H]3O[C@H]1C[C@H](N)[C@H](O)[C@H](C)O1`: “limit of quantification” 2.56 nM (calf thymus DNA; DNA damage, Tb3+ fluorescence; 24 h).
`COc1cc2c(c(OC)c1OC)-c1ccc(OC)c(=O)cc1[C@@H](NC(C)=O)CC2`: “lowest IC30 across channels” greater than 30 µM (human seizure ion channel panel; ion current, automated patch clamp).
For `c1coc(-c2n[nH]cc2-c2ccnc3ccccc23)c1`, “log2 fold change” read -0.2 (CDC7 (Candida albicans); kinase binding, MIB/MS competition; Candida albicans lysate; 1 µM; reference: DMSO).
For `C[C@H]1C[C@@H](N2C(=N)N[C@](C)(c3cccc(Nc4ccc(C5CC5)nc4)c3Cl)CC2=O)CCO1`, the IC50 was greater than 30 µM (human cardiac ion channels; ion current; panel other channels).
The Vmax of `O=C1CC2(CCCC2)CC(=O)N1CCCCN1CCN(c2ncccn2)CC1` is reported as 174 pmol/min/mg protein (H+/organic cation antiporter; cell uptake; hCMEC/D3).
For `CC[S+]([O-])c1nc(-c2ccccc2)cc(C(F)(F)F)n1` (stereo not drawn), “cells with nuclear reporter” read 4.45% and 0.97% and 1.85% and 0.86% (importin alpha/beta-1; cMyc nuclear import, high content imaging; HeLa Kyoto reporter; 15.8 µM, 2 h).
With `CC(C)C(=O)Oc1ccc(CO)cc1[C@H](CCN(C(C)C)C(C)C)c1ccccc1` the Vmax was 3980 pmol/min/mg protein (H+/organic cation antiporter; cell uptake; hCMEC/D3).
With `CN1CCN(CCNCc2cc3ccccc3nc2SCc2ccccc2)CC1` the inhibition was 86% (electron transport chain; proton pumping, ACMA quenching; Pseudomonas aeruginosa inverted membrane vesicles; 32 µg/mL, with: NADH).
For `C=CC(=O)N1CCC(C(=O)N(C)CC(=O)N2CCN(c3nc(-c4cnc(N)nc4C(F)F)nc(N4CCOCC4)n3)CC2)CC1`, the IC50 was 0.0851 µM (PKB/Akt; Ser473 phosphorylation, in-cell western; SK-OV-3).
With `C=C1CC(C(=O)Nc2cc(C(=O)NC)cc(-c3sccc3CCCCCCCC)c2OC)C1` the luciferase activity was roughly 215% (TREM2 (human); reporter gene, agonist, NFAT luciferase reporter; Jurkat-NFAT cells overexpressing TREM2; 25 µM, 4 h; reference: control).
With `CCOc1ccccc1OCCN[C@H](C)Cc1ccc(OC)c(S(N)(=O)=O)c1` the Km was 78.7 µM (H+/organic cation antiporter; cell uptake; hCMEC/D3).
`CC(C)n1cc(C(C)(C)C)nc1CN1CCN(Cc2nc(C(C)(C)C)cn2C(C)C)CCN(Cc2nc(C(C)(C)C)cn2C(C)C)CC1` gave a pZn of 5.5 (Zn2+; potentiometric titration; pH 7.4, ligand and metal 2 mM).
The Km of `CC(CN(C)C)CN1c2ccccc2CCc2ccccc21` (stereo not drawn) is reported as 21.2 µM (H+/organic cation antiporter; cell uptake; hCMEC/D3).
With `c1ccc(CSc2nc3ccccc3cc2CNCc2ccc(CN3CCCC3)cc2)cc1` the inhibition was 87% (electron transport chain; proton pumping, ACMA quenching; Pseudomonas aeruginosa inverted membrane vesicles; 32 µg/mL, with: NADH).
